Results pooled from the literature.
Parts stem from different laboratories: compare values within a part only. Several values in a cell are separate wells, animals, samples, runs or records.
UniProt O75417, sequence (whole entry, unmodified, looked up): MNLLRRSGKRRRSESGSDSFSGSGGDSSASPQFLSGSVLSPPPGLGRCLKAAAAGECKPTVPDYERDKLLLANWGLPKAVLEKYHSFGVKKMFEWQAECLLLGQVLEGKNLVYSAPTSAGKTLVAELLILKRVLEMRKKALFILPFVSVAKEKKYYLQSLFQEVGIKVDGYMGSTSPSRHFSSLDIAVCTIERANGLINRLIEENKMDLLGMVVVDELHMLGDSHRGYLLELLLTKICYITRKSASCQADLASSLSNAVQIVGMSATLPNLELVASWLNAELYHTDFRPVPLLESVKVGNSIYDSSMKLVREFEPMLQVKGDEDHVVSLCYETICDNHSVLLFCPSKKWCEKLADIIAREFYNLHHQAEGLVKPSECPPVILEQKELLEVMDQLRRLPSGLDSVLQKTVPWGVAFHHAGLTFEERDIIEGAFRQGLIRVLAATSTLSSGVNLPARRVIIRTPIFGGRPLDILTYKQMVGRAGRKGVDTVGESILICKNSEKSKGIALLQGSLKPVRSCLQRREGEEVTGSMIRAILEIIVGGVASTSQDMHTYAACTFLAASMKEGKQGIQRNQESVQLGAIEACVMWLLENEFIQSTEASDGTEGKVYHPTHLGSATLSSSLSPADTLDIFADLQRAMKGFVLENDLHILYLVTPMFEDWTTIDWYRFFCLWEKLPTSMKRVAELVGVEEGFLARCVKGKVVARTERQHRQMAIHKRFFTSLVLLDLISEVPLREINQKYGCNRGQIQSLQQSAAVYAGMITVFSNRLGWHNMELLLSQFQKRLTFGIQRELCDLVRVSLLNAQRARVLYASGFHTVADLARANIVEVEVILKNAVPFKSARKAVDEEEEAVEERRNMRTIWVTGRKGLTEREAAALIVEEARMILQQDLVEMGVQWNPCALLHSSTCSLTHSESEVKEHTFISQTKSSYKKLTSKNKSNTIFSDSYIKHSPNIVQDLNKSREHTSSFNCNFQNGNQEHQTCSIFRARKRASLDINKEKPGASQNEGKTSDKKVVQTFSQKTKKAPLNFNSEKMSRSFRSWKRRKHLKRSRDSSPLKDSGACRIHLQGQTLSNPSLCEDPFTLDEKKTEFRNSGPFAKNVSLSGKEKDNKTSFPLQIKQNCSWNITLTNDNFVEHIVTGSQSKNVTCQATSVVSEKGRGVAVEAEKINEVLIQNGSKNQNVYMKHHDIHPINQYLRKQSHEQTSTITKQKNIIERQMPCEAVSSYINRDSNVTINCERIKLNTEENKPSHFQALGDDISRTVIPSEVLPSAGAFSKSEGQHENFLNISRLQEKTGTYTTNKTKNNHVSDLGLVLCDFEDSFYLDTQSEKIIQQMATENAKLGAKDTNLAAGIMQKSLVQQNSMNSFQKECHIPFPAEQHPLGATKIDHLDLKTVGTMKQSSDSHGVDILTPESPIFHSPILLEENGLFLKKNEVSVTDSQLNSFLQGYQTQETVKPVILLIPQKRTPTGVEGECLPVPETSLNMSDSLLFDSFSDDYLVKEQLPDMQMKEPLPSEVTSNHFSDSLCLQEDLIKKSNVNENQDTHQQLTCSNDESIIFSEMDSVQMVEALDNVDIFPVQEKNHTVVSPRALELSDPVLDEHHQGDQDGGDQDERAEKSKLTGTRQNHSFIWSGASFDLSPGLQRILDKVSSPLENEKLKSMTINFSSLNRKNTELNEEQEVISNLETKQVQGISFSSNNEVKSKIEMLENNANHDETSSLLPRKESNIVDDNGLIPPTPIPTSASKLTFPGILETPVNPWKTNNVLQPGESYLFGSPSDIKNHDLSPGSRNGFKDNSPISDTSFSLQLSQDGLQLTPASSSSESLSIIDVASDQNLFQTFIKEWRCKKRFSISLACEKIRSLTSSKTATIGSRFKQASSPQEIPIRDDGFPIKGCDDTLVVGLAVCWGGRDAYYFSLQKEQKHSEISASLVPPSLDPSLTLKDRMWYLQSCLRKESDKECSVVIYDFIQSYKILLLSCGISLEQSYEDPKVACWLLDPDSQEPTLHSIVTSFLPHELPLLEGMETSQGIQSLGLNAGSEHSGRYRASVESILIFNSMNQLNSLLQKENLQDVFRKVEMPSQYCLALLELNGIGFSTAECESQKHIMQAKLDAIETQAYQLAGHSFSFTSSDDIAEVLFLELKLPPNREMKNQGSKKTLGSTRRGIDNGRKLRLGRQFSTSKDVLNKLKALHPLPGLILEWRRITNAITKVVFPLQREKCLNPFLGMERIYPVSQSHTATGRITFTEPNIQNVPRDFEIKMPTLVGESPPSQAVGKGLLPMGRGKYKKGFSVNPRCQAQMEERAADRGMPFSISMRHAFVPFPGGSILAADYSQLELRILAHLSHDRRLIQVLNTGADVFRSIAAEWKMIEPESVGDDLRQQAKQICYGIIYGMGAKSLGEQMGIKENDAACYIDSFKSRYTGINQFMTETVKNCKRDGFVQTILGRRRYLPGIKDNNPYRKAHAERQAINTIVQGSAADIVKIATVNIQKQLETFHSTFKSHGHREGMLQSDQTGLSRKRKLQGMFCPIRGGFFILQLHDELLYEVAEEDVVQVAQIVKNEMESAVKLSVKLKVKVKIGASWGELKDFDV
UniProt P28335, sequence (whole entry, looked up): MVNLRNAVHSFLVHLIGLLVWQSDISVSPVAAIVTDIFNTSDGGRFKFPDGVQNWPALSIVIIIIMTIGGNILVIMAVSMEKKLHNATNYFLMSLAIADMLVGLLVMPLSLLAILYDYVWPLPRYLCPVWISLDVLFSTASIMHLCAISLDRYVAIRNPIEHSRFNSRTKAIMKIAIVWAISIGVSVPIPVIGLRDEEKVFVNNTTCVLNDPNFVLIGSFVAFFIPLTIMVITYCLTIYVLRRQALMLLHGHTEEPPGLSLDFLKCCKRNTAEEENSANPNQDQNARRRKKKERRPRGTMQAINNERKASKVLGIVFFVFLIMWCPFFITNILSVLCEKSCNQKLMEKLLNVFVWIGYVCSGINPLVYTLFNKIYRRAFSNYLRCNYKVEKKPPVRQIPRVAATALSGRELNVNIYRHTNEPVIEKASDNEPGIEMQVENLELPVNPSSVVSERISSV
UniProt P62344, sequence (whole entry, looked up): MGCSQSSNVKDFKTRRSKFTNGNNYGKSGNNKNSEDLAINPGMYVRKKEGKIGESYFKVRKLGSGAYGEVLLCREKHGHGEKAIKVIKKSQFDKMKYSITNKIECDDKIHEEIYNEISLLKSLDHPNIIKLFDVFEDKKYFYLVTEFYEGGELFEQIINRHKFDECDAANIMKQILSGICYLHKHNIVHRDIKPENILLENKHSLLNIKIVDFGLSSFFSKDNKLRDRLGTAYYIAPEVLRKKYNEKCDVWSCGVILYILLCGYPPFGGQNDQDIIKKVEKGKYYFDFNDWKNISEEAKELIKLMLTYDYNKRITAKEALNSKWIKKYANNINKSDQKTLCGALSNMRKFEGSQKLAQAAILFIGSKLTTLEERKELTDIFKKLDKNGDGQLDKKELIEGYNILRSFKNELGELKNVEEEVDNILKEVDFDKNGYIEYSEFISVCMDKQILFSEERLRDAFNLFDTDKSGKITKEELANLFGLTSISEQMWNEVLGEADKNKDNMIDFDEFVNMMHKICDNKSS
UniProt Q9UKI8, sequence (whole entry, looked up): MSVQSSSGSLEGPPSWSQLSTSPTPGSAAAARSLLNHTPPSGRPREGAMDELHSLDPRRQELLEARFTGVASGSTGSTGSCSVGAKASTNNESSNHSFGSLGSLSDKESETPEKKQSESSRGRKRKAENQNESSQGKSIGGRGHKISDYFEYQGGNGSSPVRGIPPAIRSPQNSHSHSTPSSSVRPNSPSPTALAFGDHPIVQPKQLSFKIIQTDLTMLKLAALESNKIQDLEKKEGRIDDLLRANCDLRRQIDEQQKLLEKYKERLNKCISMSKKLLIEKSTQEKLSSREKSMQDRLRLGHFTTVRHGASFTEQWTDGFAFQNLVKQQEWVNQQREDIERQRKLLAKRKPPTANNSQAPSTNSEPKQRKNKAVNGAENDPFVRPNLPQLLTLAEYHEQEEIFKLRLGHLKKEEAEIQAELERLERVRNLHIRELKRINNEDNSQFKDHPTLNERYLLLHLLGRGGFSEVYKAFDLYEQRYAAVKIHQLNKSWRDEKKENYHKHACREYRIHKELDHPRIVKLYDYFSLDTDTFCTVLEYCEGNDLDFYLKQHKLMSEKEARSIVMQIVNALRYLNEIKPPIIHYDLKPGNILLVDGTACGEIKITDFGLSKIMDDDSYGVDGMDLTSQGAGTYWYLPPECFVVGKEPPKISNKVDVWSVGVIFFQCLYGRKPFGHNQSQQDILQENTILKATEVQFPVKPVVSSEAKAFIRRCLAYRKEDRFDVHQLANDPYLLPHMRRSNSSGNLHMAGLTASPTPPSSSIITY
UniProt P61075, sequence (whole entry, looked up): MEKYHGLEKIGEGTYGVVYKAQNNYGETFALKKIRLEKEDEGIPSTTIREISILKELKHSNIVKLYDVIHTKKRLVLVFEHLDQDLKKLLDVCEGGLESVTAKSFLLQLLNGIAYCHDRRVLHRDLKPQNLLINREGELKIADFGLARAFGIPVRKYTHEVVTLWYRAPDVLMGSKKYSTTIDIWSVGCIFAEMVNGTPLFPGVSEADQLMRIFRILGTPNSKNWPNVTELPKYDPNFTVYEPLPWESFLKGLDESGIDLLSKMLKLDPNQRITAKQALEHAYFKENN

Series 1
Structure (SMILES): O=C1CCC(N2Cc3c(ccc4c3OCC43CCN(Cc4ccccc4)CC3)C2=O)C(=O)N1 (stereo not shown)
Matrix: plasma
The plasma concentration was 314 ng/mL and 263 ng/mL (ICR mouse, male; intravenous, 1 mg/kg, 0.083 h).
The plasma concentration was 19.1 ng/mL (male ICR mice; intravenous, 1 mg/kg, 4 h).
It gave 61.1 ng/mL for plasma concentration (male Sprague Dawley rats; intravenous, 1 mg/kg, 4 h).
For male ICR mice; intravenous, 1 mg/kg, 0.083 h: plasma concentration read 320 ng/mL.
The plasma concentration was 118 ng/mL and 113 ng/mL (male ICR mice; intravenous, 1 mg/kg, 1 h).
It gave 48.3 ng/mL and 10.8 ng/mL and 15.4 ng/mL for plasma concentration (ICR mouse, male; oral, 3 mg/kg, 8 h).
The plasma concentration was “not detected” (male ICR mice; intravenous, 1 mg/kg, 24 h).

Series 2
Cell line: HEK-293T
Observed: pseudovirus infection
Technique: FDA-approved drug library counter-screen
Organism: VSV pseudotyped with VSV-G
Concentration: 10 µM
Time: 16 h
Baseline: vehicle-treated
With `COc1cc(Nc2c(C#N)cnc3cc(OCCCN4CCN(C)CC4)c(OC)cc23)c(Cl)cc1Cl` the GFP-positive cells was 147%.
`CCc1cc2c(cc1N1CCC(N3CCOCC3)CC1)C(C)(C)c1[nH]c3cc(C#N)ccc3c1C2=O` has a GFP-positive cells of 116%.
`COc1ccc2nc(SCc3ncc(C)c(OC)c3C)[nH]c2c1` has a GFP-positive cells of 127%.
`C[C@H]1COc2c(N3CCN(C)CC3)c(F)cc3c(=O)c(C(=O)O)cn1c23` has a GFP-positive cells of 100%.
With `Nc1nc2[nH]cc(CCc3ccc(C(=O)N[C@@H](CCC(=O)O)C(=O)O)cc3)c2c(=O)[nH]1` the GFP-positive cells was 103%.
The GFP-positive cells of `CN1CCN2c3ncccc3Cc3ccccc3C2C1` (stereo not shown) is reported as 105%.
With `Clc1ccc(C(Cn2ccnc2)OCc2csc3c(Cl)cccc23)c(Cl)c1` (stereo not shown) the GFP-positive cells was 121%.

Other studies, line by line
`CC1=C(C#N)C(c2ccc3c(c2)c(NC(=O)c2ccccc2C)nn3C)C(C#N)=C(C)N1` has a remaining binding of 98% (CDPK1 (Plasmodium falciparum, UniProt P62344); cell-free assay, competition with immobilised ligand; 1 µM).
`C[N+]1(C)CCc2cc3c(cc2[C@H]1[C@@H]1OC(=O)c2c1ccc1c2OCO1)OCO3` has a remaining activity of 113% (DNA polymerase theta, ATPase domain (POLQ, Homo sapiens, UniProt O75417); ssDNA-stimulated ATPase activity, inhibitor, ADP-Glo luminescence; 77 µM; baseline: DMSO).
With `Cc1cc(-n2nc(Cc3cc(F)cc(C(F)(F)F)c3)nc2C)ccc1C(N)=O` the inhibition was -5.34% (HTR2C (Homo sapiens, UniProt P28335); binding, radioligand binding; 10 µM).
With `O=C(NCc1ncc(C(F)(F)F)cc1Cl)c1ccc2c(c1)C1(CCS(=O)(=O)CC1)[C@H](C1CC1)N2S(=O)(=O)c1ccc(F)cc1` the remaining binding was 96% (TLK1 (Homo sapiens, UniProt Q9UKI8); cell-free assay, competition with immobilised ligand; 1 µM).
For `CCc1ccccc1C(=O)Nc1n[nH]c2c(C)c(F)c(C3C(C#N)=C(C)N(C)C(C)=C3C#N)cc12`, the remaining binding was 100% (CRK2 (Plasmodium falciparum, UniProt P61075); cell-free assay, competition with immobilised ligand; 1 µM).

Excerpt of the above (other studies, line by line):
`C[N+]1(C)CCc2cc3c(cc2[C@H]1[C@@H]1OC(=O)c2c1ccc1c2OCO1)OCO3` has a remaining activity of 113% (DNA polymerase theta, ATPase domain (POLQ, Homo sapiens, UniProt O75417); ssDNA-stimulated ATPase activity, inhibitor, ADP-Glo luminescence; 77 µM; baseline: DMSO).
With `Cc1cc(-n2nc(Cc3cc(F)cc(C(F)(F)F)c3)nc2C)ccc1C(N)=O` the inhibition was -5.34% (HTR2C (Homo sapiens, UniProt P28335); binding, radioligand binding; 10 µM).
